Measured values collected from several papers.
A part holds a random share of what one study measured. Positions count from the first letter of the parent shown.

Sample 1 — target: CCNE2, cyclin fold, Cln2 fusion (human); method: yeast growth competition, sequencing; medium: yeast; setting: weak parent motif; reference: not given; reading: higher = stronger binding; endpoint: normalised enrichment score
Starting sequence: CENPC docking peptide (human); VKTKKRLNFDDKV
K5R: 3.56
R6A: 0.887
K2A: 0.347
L7A: 0.54
K5R F9L: 0.444
K5A L7A: 0.359
V1A: 0.717
N8A: 0.468
F9A: 0.359
D10A: -0.0151

Sample 2 — method: protein-binding microarray; molecule type: double-stranded DNA, one strand shown; medium: in vitro; tested at: 0.8 µM; setting: whole 60-bp probe, no competitor; reading: higher = stronger binding; endpoint: fluorescence intensity; shared flanks, not repeated: … GTCTTGATTCGCTTGACGCTGCTG
Target: Centromere-binding protein 1, full length, N-terminal tag (CBF1, Saccharomyces cerevisiae, UniProt P17106, residues 1-351)
Sequence of UniProt P17106 (whole entry, looked up): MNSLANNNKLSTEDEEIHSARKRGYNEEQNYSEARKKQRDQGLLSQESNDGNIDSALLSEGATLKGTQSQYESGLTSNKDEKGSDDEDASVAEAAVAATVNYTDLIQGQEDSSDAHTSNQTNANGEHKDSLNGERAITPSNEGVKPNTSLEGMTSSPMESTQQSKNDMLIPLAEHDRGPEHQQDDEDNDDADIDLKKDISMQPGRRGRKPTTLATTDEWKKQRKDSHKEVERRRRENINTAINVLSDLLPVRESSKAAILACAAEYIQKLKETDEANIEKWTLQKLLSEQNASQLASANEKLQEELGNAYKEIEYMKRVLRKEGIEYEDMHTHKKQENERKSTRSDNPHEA
CTACCAATTCTTGATCTGGTGATCCATACGATTTTC: 897 a.u.
CTACAAAAGCTACGTCACCTCACCAATAATCCGTTC: 547 a.u.
GAATAGTGAAATATGCACATGAAATTGTATTGGTAG: 550 a.u.
TGTACGAAGCTATATCACGTCAATATAGTAGTTAGG: 542 a.u.
GAAAAAATAAGGCGTCAGGTGACCAGGCACCTCTAG: 11800 a.u.
CCTAACTACTATAATGGTGATATATAGCTTCGTACA: 503 a.u.
GAAGTATATTCTTTTGACGTGGTCACCCTATCTTAG: 506 a.u.
CTATTTGATGAAAATCACGATAGTTAATTTTTCTTC: 567 a.u.
GAAATTTACTAATATCACGATTATTCTTCATTCTAG: 539 a.u.
GAAAGACGATAGTGGATTTTTATTCCAACAGAGTAG: 486 a.u.
GAATCGTTATGGAGTCACGGCTTTGAGGGCGGGTAG: 556 a.u.
CTAAGGGTTTAAGTCTACATCAGGATCACCTGCTTC: 1000 a.u.
CTAAAACTATGTATACGTGTGTGTGTGTGTGTGTTC: 605 a.u.
CTACTCTTAGTTTTTCATGTGGTAAAGGCAATGTTC: 624 a.u.
GAATGTTAAGCTTACATCAGCACTAAAAAACAATAG: 560 a.u.
GAATATTGTGATGCGCACGTTGAAATTCACTATTAG: 531 a.u.

Sample 3 — method: RNAcompete; molecule type: RNA; medium: in vitro; tested at: 20 nM; setting: 7-mer, probes averaged, single round; reference: mean of 7-mers; reading: higher = stronger binding; endpoint: 7-mer Z-score
Target: PABPC1L2, full length, GST fusion (mouse, UniProt A0ABA7IW68)
Construct (chain): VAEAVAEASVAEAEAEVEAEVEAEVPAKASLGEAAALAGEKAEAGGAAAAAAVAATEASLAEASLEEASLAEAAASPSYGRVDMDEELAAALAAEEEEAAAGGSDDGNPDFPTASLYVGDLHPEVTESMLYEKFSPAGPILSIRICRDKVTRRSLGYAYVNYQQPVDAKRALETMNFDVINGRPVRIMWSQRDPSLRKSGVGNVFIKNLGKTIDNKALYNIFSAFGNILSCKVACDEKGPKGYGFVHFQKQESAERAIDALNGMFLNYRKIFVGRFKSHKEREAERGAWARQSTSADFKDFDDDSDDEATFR
UAAUUCU: -0.184
UCGACGC: -0.228
UACCAUG: -0.168
CGCUAAG: -0.237
AACGUUU: -0.28
ACUAUCA: -0.142
UGCCGUC: -0.476
AUGCGCU: -0.0917
AGACUGG: -0.122
CCGCUAU: -0.331
UAGUUUC: -0.396
AUACGUG: -0.106
ACGGCCU: -0.0844
AACUAUA: 0.285
GAUUGGC: -0.0863
ACCUGCG: -0.113
UGAAGGA: 0.0243
UUGGAAG: 0.124
CUCUAUG: -0.244
UCGUACC: -0.316
GCCCGAG: -0.231
GAUUUAG: 0.222
UCUCCGC: -0.465
UACGAUG: -0.159
UGGCACG: -0.0518

Sample 4 — method: DHFR PCA, deep sequencing; medium: yeast; added: (+)-ABA 1.4 µM; reference: wild-type fitted maximum; reading: higher = stronger binding; endpoint: relative binding score
Target: ABI1, truncated, D143A, DHFR fusion (Arabidopsis thaliana)
Setting: methotrexate growth selection, single substitutions
Starting sequence: PYL1, truncated, DHFR fusion (Arabidopsis thaliana); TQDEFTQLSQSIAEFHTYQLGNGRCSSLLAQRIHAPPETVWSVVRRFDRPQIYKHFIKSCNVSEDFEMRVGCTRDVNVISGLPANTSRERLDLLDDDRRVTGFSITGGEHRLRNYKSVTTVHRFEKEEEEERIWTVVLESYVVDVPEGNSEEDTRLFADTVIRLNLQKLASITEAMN; partner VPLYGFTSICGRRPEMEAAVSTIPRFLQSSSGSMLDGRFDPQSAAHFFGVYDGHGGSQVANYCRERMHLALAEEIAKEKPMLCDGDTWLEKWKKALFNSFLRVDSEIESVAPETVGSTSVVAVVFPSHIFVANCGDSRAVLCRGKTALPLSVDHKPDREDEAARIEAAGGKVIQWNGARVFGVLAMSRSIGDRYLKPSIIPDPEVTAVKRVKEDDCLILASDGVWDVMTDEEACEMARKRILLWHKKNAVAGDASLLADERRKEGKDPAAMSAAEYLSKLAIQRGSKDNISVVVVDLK
Q10N: 49.6%
L166H: 21.6%
V118H: 34.9%
Y141I: 2.5%
F15Q: 9.68%
T101R: -4.74%
S63W: -10.1%
Q51G: 2%
H34S: 47.3%
E147H: 47.9%
D48H: -10.5%
N149P: 13.6%
Q7G: 55.4%
R163W: -6.34%
R32G: 1.8%

Sample 5 — target: FOS, bZIP domain (human); method: DHFR protein complementation; medium: yeast; reference: wild-type JUN-FOS pair; reading: higher = stronger binding; endpoint: binding fitness
Setting: single substitutions, most at no-binding floor
Starting sequence: JUN, bZIP domain (human); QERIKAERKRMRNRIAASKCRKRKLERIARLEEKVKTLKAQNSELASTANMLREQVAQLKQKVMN; partner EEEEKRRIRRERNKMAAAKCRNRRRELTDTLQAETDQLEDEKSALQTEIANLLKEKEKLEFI
A29H: -0.112 natural log
L38Q: -0.446 natural log
T37R: -0.0547 natural log
A29L: -0.307 natural log
A29P: -0.544 natural log
I28H: -0.119 natural log
Q58C: -0.0712 natural log
L45D: -1.24 natural log
R53P: -1.29 natural log
R53S: -0.653 natural log
L31M: 0.0857 natural log
L31H: -0.311 natural log
Q55P: -1.03 natural log
I28G: -0.24 natural log
E32R: 0.0289 natural log
K36R: 0.0501 natural log

Sample 6 — method: RNA Bind-n-Seq; molecule type: RNA; medium: in vitro; tested at: 365 nM; reference: no-protein control; reading: higher = stronger binding; endpoint: RBNS enrichment (R)
Target: RNA binding protein fox-1 homolog 2, RRM domain, GST-SBP tag (RBFOX2, Homo sapiens, UniProt O43251-10, residues 100-194)
Setting: natural RNA segment, single round, ends assumed
Shared flanks, not repeated: GGGAGUUCUACAGUCCGACGAUC … UGGAAUUCUCGGGUGCCAA
Target sequence (chain): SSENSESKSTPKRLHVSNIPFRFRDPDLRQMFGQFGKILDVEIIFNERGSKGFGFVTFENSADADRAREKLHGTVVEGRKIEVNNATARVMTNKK
CCAGUGCCUGUGGAGUCAGCCAGCCGAGGGUCUGCCUCCUCAGCUGCCCCAGGGGGGCCUCCCUCCUGAGGCUCAAGCUCCUGGCGUCUUUCUUCCUGUUGCUGGAUUCU: 0.467
UAUUUCUAUAAGGAUGGAUUUAUAAUUUUCCCCUCAACAUGGCAACUCUCUCUGUGAAAAUUUAAAUUGUGUGUGUUCUAUCUUUAGAUCCCCUCCAUUUAUUUGUUUAA: 0.325
AAAAAGACUCAGCUCACUCAAUGAGAGAAUGUGAUUUACUUUAUAGAACGUAUAAUCAACUUUGUUGAAUAAUUUGUUCUAUUAAGGCUGUCUAAAGUAUGUGAUGUCUU: 0.521
UUCCAGACACUGCUCACUCACUGGGUGCUGUGCUGUGGCUAGUGUAUGGCUUGUACCCAGAUGGCGCACUGUGCAGCCUGUGUAGCAUGCACAGUGACCCAGCUGAGUGG: 0.538
UGCCAGGAAGCAACAAGGAGAGAGAAACACUAACUAGUCUUCCUUUAUAACCCAUUCAUACUCUCUGGCUGUCCCCAACCUUCAUAGUCUCCUGCAUCCAAAUGUCCUCU: 0.313
CAGAAGCCUUGGCUAUUUAUAGCAGUUCUGACAAUAGUUUUAUAAGAACAUGAAGAGAACAGAAUCACUUGAAAAUGGAUGCCAGUCAUCUCUUGUUCCCACUACUGAAU: 0.431
AGAAUCCCUGUUCCCUAUGUCACGUUCCAGCAUUGUAUAGCACAGUUCCAUGUCACAAACAGGAAGGUUAGAAACACUAAGGUCUGUGAACAUCACUGCUGCAGCGAGGC: 0.295
GGGCGUGCGGCUCAGAGGAGACCCUACGAACGCCUAAGAGCCAGGAUCCUCCCAGCCCCCAGCCCGCCACCCUUCCAGCACUCCUCUCUAGAACCGACGACCACACACCG: 0.342
AUACCUGGGAAGACCUUUGCAACAUUGUUCCUUCCAUGGGCCAAGACUCAGUUAGGAGGCAUAAAUCUGCCCGGAAUAAACUAGGCCAGGAUACAGCCAUGUUUAGUUAA: 0.405
ACUUAACAGGUUCUUUGUCAACAUGGAGACAUUAACAUGGUAGCUCACUGACUGGGUCUCUUCAGCUGUCAUCAGGCUUCCACCAGAAGAACAAACAACAACAAAAAAAG: 0.483
CACUAUAAGGCUGAGGGCUGCCAGCAGCCCCGUCUGCCCACCAUUCCCGGCCGUGGACCAUAGUCGGGAUGUCAGCAGACACACAUGGGCAGCCCAAAGCUGCAGGUGCC: 0.224
CCAAGGUAUUAAGAAUUUGCAAGUAUUUUAGAUUUUCGAAAAUGAAUGAGAGAACUGUGUAAACACCCCGCUGUUCCUUCAGUGCAACACAAUAAAACUCUGAAAUGAAG: 0.859

Further values, each from its own experiment
PhoQ, residues 284 288 289 292 302 303 SCKMEA
fold induction (PhoP, residues 12 14 15 18 19 STWGI (Escherichia coli, UniProt P23836); Sort-seq, item: YFP reporter; E. coli; PhoQ-PhoP variant library, added: 10 µM Mg2+; reference: high Mg2+ state, higher = stronger signaling): 7.43
